# Experimental data gathered from unrelated publications.
# Every numbered part comes from another study and shows a few of its results, in no order. Changes are numbered by the printed parent chain.

# Block 1 — technique: protein binding microarray; form: double-stranded DNA, one strand shown; matrix: in vitro; tested at: not given; relative to: not given; reading: higher = stronger binding
# Target: Histone acetyltransferase KAT6A, winged helix 2, GST fusion (KAT6A, Homo sapiens, UniProt Q92794, residues 85-181)
# Setting: 8-mer, flanks averaged, mean of 2 arrays, mostly near background
# Residues (chain): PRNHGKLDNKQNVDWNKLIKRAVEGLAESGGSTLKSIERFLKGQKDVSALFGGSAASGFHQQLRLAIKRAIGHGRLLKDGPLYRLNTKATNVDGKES
Strand,E-score
ATTTGATG,0.0714
CGTGTCCC,0.122
CCTCGCAA,0.0962
AGAGTCGG,-0.0136
TCGGCGCA,0.0533
TAATGTCA,-0.109
CCATACCA,-0.032
CTAATCCC,-0.111
ATACAGGG,-0.0112
ACGCGCAC,0.0465
AGGGTGAA,0.0499
CCAACGAA,-0.0476
ATCACCGA,-0.0383
AGATTCTA,0.0273
CCCCGAGC,0.0686
CGATCTCA,-0.105
TCGTTAAA,-0.0441
AGCAGGCA,-0.0209
AACGGAGT,0.235
ACGCCATC,-0.113
CAACGGTC,0.0304
GCTCCCTA,-0.124

# Block 2 — technique: protein-binding microarray; form: double-stranded DNA, one strand shown; matrix: in vitro; tested at: not given; reading: higher = stronger binding
# Target: Protein C-ets-1 (ETS1, Homo sapiens, UniProt P14921, residues 1-441, K379A, full length assumed)
# UniProt P14921, sequence (whole entry, unmodified, looked up): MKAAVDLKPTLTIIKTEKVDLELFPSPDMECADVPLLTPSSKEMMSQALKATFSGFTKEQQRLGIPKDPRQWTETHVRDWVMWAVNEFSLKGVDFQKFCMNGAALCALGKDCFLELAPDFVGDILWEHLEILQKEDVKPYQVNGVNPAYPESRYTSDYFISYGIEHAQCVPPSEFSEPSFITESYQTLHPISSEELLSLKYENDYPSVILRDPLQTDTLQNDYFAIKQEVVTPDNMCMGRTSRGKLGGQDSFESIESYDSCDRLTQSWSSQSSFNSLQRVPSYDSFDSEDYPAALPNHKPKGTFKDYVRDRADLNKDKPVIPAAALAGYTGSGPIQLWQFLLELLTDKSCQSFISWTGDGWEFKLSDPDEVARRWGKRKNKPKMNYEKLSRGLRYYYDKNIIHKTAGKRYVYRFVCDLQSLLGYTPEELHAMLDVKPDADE
# Setting: k-mer, scored over probes, only values ≥0.25
Strand,E-score
CGGTAACG,0.274
CCGGGGCA,0.306
TCGGTAAA,0.342
ACTACACA,0.265
ACCGGTAA,0.462
CGACCGAC,0.31
CACCGGAC,0.364
CGACGGCG,0.274
AGAACCGG,0.346
CCGGTAAC,0.425
TACGGTAA,0.262
GCGACACC,0.29
CTACCGGA,0.35
ACCGGACC,0.295
CGCCCCGC,0.341
CACAATGG,0.281
ACGCGTCG,0.282
AATATACA,0.279
TCCGGTCA,0.376
ACCCACCC,0.333
CTCCGGTA,0.41
ATTGTCGG,0.303
CCCCGACG,0.28
AATATCGT,0.259
CGCCGGTC,0.362

# Block 3 — target: CREB5, bZIP domain (human); technique: DHFR protein complementation; matrix: yeast; relative to: wild-type JUN-FOS pair; reading: higher = stronger binding
# Setting: single substitutions, most at no-binding floor
# Parent: JUN, bZIP domain (human); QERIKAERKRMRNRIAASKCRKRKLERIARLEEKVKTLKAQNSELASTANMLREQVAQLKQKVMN; partner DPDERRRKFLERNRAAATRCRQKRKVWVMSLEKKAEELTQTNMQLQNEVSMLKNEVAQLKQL
Variant,binding fitness [natural log]
A49L,-0.515
V56T,-1.14
T37L,-0.164
Q55V,-0.568
E32M,-0.433
A29H,-0.29
E44F,-0.432
A46R,-0.302
E32L,-0.302
N42Y,-0.877
E44K,-0.343
M51H,-0.339
A29M,-0.613

# Block 4 — technique: RNA Bind-n-Seq; form: RNA; matrix: in vitro; tested at: 365 nM; relative to: no-protein control; reading: higher = stronger binding
# Target: RNA binding protein fox-1 homolog 2, RRM domain, GST-SBP tag (RBFOX2, Homo sapiens, UniProt O43251-10, residues 100-194)
# Setting: natural RNA segment, single round, ends assumed
# Construct (chain): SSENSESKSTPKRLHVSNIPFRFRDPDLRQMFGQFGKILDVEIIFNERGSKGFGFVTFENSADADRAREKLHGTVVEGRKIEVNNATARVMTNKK
Strand,RBNS enrichment (R)
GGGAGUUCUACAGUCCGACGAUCGAAAGUGUGUGUCUGCUGGGGCAGCUGUGCCCCUGAAUCAUGGGCACGGAGGGCCGCCCGCCACGCCCCGCGCUCAACUGCUCCCGUGGAAGAUUAAAGGGCUGAAUCAUUGGAAUUCUCGGGUGCCAA,0.361
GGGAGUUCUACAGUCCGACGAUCUGUAUUUUAUUUUGAAAUAAACAUCAUUGCCUAAUUGCUCUACCCUAAAAUAGAAUCAUUGCUUUUUGUGUUUCUCAUCCCAACCUUGAAGUUGUCAUGUCAUCCUUUUCUGGAAUUCUCGGGUGCCAA,0.922
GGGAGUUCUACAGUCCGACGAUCUUUCAUUGUAUCAAAUACUUUUUUAAAGACUACAAAUAAAGUCUAUUAGGACUGUGACCCAAUAGAACAAAUGUUUCUUUAUUUCUGAGAUGGGGUGCAUGGAAAGCUGUUGGAAUUCUCGGGUGCCAA,0.667
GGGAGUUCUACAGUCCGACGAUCCUUCACCCUGUCCCCAGACGGGGGAACCCGUGGGUCAGGCGUGGAUAAGCCUGCGAGAAUACACCCUUUCUCCAUUCACUUUCUAUUUACAAAUUAGGAAAGCAACCUUUUGGAAUUCUCGGGUGCCAA,0.279
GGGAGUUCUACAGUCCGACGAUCCUAUUCUAAGUAGAAUGUUCAAUGUAACUGACUAAAAUUGCAUGUUAAAGAUAUUUAGGUUUUUUUGUUUUCUUUAUUUUUAUUUGUUUUCAGUUUCCUGUAUAUUUGCUUGGAAUUCUCGGGUGCCAA,60.3
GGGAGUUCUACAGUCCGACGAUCAACUCCCUGAAAUCUGGAAUCAGGGUGGAAACAGCCUGUUUUUCCCAUUUAAACAGGAGUCCUCUUCAACUUCAGCUGAUUACAAUAACAAAAGGCGGAAUUGAAUUGUGUGGAAUUCUCGGGUGCCAA,0.199
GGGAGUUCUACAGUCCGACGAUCUCUCAGUGCUCUACAGAACCCCCAGAGGGAAGCUGAUUAUACAUUCCAGGAAGGCGGCCGGUAGCUUAGUGUAGCCUCUGCAAUAAAAGAGCUUUUCCUUAAUGUUUGCUUGGAAUUCUCGGGUGCCAA,0.669
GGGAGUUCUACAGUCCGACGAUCCAGUAGGCCAAGAAAUUAUCUUUCUGGUUUUUUUCCUCUAAACUCCAUUUGGUUAGCAGACAGUGACAGCUGAGCAGGUCUGAGCACUACUGUGUCAUAGUGGACCCUGAUGGAAUUCUCGGGUGCCAA,0.301
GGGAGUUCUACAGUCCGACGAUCUUCUAAAACAAAACACCAGCCCCAUAGACCACUGAGCACCUAGGGAGGUUUCUCUGCCUAGCCAUAGCAUCAUUAAUAGAUGUCCAAAAAUGAGCAAUUCUGGGAAUCACUGGAAUUCUCGGGUGCCAA,0.663
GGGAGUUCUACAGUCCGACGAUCCCUUCAACCACACCUGGUCUCUUAGAACAUUGUGAACCUAACCUGCACUUGUGUCUCUCAUUUCCUGUGAAUAGUGAUCACUGUCUCAGUGAGCAAACUGGGAGAGGGGCUGGAAUUCUCGGGUGCCAA,0.278
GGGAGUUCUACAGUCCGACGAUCCUCUCCAUUCCUGGUUCAGGGUUAGGGUCCUGAGAGGCUGGCUCGGCACUACUCCGAGGGUCCCUCACUCUACAAGGUCUUUGUUAGUAUUAAAGGCCACUGUUUUGCAUUGGAAUUCUCGGGUGCCAA,0.487
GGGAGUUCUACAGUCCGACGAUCCCUGCCCUUGGAGGGCAUGUAGCAGUGUCUGUCCUGCCAGUCCCAAGGCCCUGUGGGAGGAGACUGGCCUGCAUCUCUCUAAGACUUAGUCUGACGCCACGCGCAUCUCUUGGAAUUCUCGGGUGCCAA,0.688

# Block 5 — target: CCNA2, cyclin fold, Cln2 fusion (human); technique: yeast growth competition, sequencing; matrix: yeast; setting: strong parent motif; relative to: not given; reading: higher = stronger binding
# Parent: PPP1R3F docking peptide (human); VAPRRVLFADEAL
Variant,normalised enrichment score
VAPRAVAFADEAL [R5A L7A],-0.23
VAPRRVLFAAEAL [D10A],1.86
VAPRRALFADEAL [V6A],2.77
VAPARVLFADEAL [R4A],0.638
VAPRRVLAADEAL [F8A],-0.129
VAPRKVLFADEAL [R5K],1.32
VAARRVLFADEAL [P3A],4.82
VAPRRVLLADEAL [F8L],0.638

# Block 6 — technique: RNA Bind-n-Seq; form: RNA; matrix: in vitro; tested at: 1 µM; setting: whole 134-nt RNA, ends assumed; together with: 150 mM KCl; relative to: input library; reading: higher = stronger binding
# Target: Ras GTPase-activating protein-binding protein 1, C-terminal RGG region (G3BP1, Homo sapiens, UniProt Q13283)
# UniProt Q13283, sequence (whole entry, looked up): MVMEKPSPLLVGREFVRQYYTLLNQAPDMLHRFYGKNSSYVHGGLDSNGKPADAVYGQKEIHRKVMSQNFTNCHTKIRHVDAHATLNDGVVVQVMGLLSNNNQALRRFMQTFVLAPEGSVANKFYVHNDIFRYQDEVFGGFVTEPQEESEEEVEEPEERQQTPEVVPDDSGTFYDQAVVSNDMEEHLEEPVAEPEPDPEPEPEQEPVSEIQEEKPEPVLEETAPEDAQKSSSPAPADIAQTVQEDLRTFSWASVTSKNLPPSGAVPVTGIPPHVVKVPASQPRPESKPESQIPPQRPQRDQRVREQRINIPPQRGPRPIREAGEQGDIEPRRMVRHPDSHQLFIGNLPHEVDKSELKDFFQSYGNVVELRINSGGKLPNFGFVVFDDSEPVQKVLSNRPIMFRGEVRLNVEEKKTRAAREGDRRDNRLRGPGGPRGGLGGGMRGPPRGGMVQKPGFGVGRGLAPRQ
Strand,log2 enrichment
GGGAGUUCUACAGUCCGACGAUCCUCAAGUCCUGUGCUACACAUCGUAUGUACCGAAUCGGAGGUGGUUUUUUUGGAAAGUAUUAUGUUACGCCGUUCGGAUCUGCACUUCCAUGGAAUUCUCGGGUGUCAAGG,-1.14
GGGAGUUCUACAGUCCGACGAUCGUCCUGUGCUACACAUCGUAUGUACCGAAUCAAAUUUUUUUAAACCCCCAAACCCAAAAAAGUAUUAUGUUACGCCGUUCGGAUCUGCACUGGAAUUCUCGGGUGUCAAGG,-0.929
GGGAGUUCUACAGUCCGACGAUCCAAGUCCUGUGCUACACAUCGUAUGUACCGAAUCGGAAAAGGAAAAGGGAAAAGGGAAAGUAUUAUGUUACGCCGUUCGGAUCUGCACUUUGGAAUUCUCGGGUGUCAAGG,-2
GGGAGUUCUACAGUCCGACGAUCACCAUGCAGGUGGGCAUCUUUGGCAAGUGGGGCAAGGGGGGGAUAGGGAGGGGGGUAACACUUUGGGAACAGGUGGUCCCAGGUCGUUUCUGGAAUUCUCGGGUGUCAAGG,-1.05
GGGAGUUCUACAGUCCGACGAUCGCAGGAAGUAAAAACAAAUGGAAAUGCUUCGGAUAGUGGCAGGGGUUGGGGUUGCUAAGGAAAGGGUGGGAUGGGAGUGGGUAAAGAGUUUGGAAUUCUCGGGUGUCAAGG,0.48
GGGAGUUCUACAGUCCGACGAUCUGGCCCUAGUGGCAUGCGGGGAGGAAGAGGUGGCCUCAUGGAUCGUGGUGGUCCCGGUGGAAUGUUCAGAGGUGGCCGUGGUGGAGACAGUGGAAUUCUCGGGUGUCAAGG,2.2
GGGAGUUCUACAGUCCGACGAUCUCCUGUGCUACACAUCGUAUGUACCGAAUCGGUUUUUUGGUUUUUUGGGGUUUUUUGGGAAAGUAUUAUGUUACGCCGUUCGGAUCUGCAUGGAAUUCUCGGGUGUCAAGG,-0.938
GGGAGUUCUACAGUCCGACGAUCUGGGAGGUGGAUUUUGUUUAUUUUUUUAGCUCAUUUCCAGGGGUGGGAAUUUUUUUUUAAUAUGUGUCAUGAAUAAAGUUAUUUUUGAAAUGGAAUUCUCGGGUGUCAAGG,3.33
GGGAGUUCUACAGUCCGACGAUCAAGUCCUGUGCUACACAUCGUAUGUACCGAAUCAAAUUUAAAUUUUUAAACCCAAAAAAGUAUUAUGUUACGCCGUUCGGAUCUGCACUUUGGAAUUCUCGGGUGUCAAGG,-1.01
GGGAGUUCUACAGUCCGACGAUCGCAGGAAGUAAAAACAAAAGGAAAUGCUUCGGAUAGUGGCAGGGGUGGGGGUUGCUAAGGAAAGGGUGGGAUGGGAGUGGGUAAAGAGUUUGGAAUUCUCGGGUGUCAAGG,1.65
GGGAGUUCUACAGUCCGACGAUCUCCUCAAGUCCUGUGCUACACAUCGUAUGUACCGAAUCGUGUGUGUGUGUGUAAAGUAUUAUGUUACGCCGUUCGGAUCUGCACUUCCAGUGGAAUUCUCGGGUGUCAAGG,0.859
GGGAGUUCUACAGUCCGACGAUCGCAGGAAGUAAAAACAAAUGGAAAUGCUUCGGAUAGUGGCAGGGGUGGGGGUUGCUAAGGAAAGGGUGGGAUGGGAGUGGAUAAAGAGUUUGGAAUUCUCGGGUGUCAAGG,1.47
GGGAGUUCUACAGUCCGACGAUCGAUCUCCGGGCUCAGUUGCAGAUUCUGGCCAACAUGGACAGCCAGCUAAAAGAGCUACAGAGUCAGCAUACCCAUUGUGCCCAGGACCUGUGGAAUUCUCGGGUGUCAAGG,-1.6
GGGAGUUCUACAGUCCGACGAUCUCCUCAAGUCCUGUGCUACACAUCGUAUGUACCGAAUCGGUUUGGUGGAGGAAAGUAUUAUGUUACGCCGUUCGGAUCUGCACUUCCAGCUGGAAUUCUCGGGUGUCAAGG,-1.15

# For quick reference, copied from above (block 6):
Strand,log2 enrichment
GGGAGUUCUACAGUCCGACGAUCUCCUGUGCUACACAUCGUAUGUACCGAAUCGGUUUUUUGGUUUUUUGGGGUUUUUUGGGAAAGUAUUAUGUUACGCCGUUCGGAUCUGCAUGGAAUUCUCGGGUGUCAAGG,-0.938
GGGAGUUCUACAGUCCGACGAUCACCAUGCAGGUGGGCAUCUUUGGCAAGUGGGGCAAGGGGGGGAUAGGGAGGGGGGUAACACUUUGGGAACAGGUGGUCCCAGGUCGUUUCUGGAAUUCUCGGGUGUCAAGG,-1.05
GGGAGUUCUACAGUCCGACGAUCGAUCUCCGGGCUCAGUUGCAGAUUCUGGCCAACAUGGACAGCCAGCUAAAAGAGCUACAGAGUCAGCAUACCCAUUGUGCCCAGGACCUGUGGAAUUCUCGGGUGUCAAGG,-1.6
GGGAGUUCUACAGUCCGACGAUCUCCUCAAGUCCUGUGCUACACAUCGUAUGUACCGAAUCGGUUUGGUGGAGGAAAGUAUUAUGUUACGCCGUUCGGAUCUGCACUUCCAGCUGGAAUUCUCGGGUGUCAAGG,-1.15
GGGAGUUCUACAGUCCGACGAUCGCAGGAAGUAAAAACAAAUGGAAAUGCUUCGGAUAGUGGCAGGGGUUGGGGUUGCUAAGGAAAGGGUGGGAUGGGAGUGGGUAAAGAGUUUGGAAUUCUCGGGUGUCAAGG,0.48
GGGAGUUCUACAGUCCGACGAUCUCCUCAAGUCCUGUGCUACACAUCGUAUGUACCGAAUCGUGUGUGUGUGUGUAAAGUAUUAUGUUACGCCGUUCGGAUCUGCACUUCCAGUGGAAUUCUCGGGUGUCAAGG,0.859
